Assay results from different studies.
Parts stem from different laboratories: compare values within a part only. Positions count from the first letter of the parent shown.

Set 1 — method: protein binding microarray; molecule type: double-stranded DNA, one strand shown; matrix: in vitro; concentration: not given; relative to: not given; reading: higher = stronger binding
Target: Histone acetyltransferase KAT6A, both winged helices, GST fusion (KAT6A, Homo sapiens, UniProt Q92794, residues 1-181)
Setting: 8-mer, flanks averaged, mean of 2 arrays, mostly near background
Target sequence (chain): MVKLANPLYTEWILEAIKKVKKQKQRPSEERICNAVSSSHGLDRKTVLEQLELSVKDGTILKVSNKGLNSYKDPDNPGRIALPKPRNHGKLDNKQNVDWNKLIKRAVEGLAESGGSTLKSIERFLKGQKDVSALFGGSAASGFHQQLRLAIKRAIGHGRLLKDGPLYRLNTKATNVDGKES
| Oligonucleotide | E-score |
| --- | --- |
| CTAAACGC | 0.128 |
| AGAGCGCA | 0.111 |
| ACGAAGTA | -0.178 |
| ACCATCCT | -0.0372 |
| AATACTGT | -0.123 |
| ACTAGACG | 0.0674 |
| CCACTCTA | -0.274 |
| GCATCTCC | 0.0193 |
| TCAGCCCA | -0.116 |
| ATTGCTAA | -0.0935 |
| ACTCCACG | -0.0537 |
| CCTCATCA | -0.0234 |
| TATAGTCA | -0.176 |
| GAACTAGA | -0.0203 |
| CGGCATGA | 0.3 |
| GAAGAAAC | -0.0239 |
| CTAGTAAC | -0.169 |
| GGGCCCCA | -0.0449 |
| AACGTGGC | -0.0467 |
| CTGAAGAC | -0.049 |
| AGGTTTAT | 0.0732 |
| ACCGAGGC | -0.0276 |
| GGCTGAAC | 0.117 |
| ACATCTCC | -0.0485 |
| GAAATTGA | 0.0453 |

Set 2 — method: RNA Bind-n-Seq; molecule type: RNA; matrix: in vitro; concentration: 365 nM; relative to: no-protein control; reading: higher = stronger binding
Target: RNA binding protein fox-1 homolog 2, RRM domain, GST-SBP tag (RBFOX2, Homo sapiens, UniProt O43251-10, residues 100-194)
Setting: natural RNA segment, single round, ends assumed
All sequences stand within: GGGAGUUCUACAGUCCGACGAUC … UGGAAUUCUCGGGUGCCAA
| Oligonucleotide | RBNS enrichment (R) |
| --- | --- |
| UUAUAAUAAAGAUAUAAGUGGAUUUUAAGGUUCCAUUUUUUUAAGGUUACCCUUGUUUUUCAAAGGUAUUUUUUAAACAGAUCUUUAAUAGAAUAUUUAAGCUGUGACUG | 0.434 |
| CUGGCUGGUGGUUUAACAGGUGUCACUCUGCAAACCUGAACGGUGUUUACUACCGUGGUUCCUACAGGGCAGAAACGGAUAAUGGUGUUGUGUGGUACACCUGGCAUGGG | 7.37 |
| UUUUGUUGUCCUUCUUAAUGUUCUCAGUCAAAUAAAUGAGUGAGCUGGUUUCGGCUGCUCUUGGAAUGGUGAGCCUCUUCUUUAUGGGUAGACUGGGCCUUUGGAACUUG | 0.432 |
| UAUGCACUUCAAGAGCUCACACUCACAUUGUGGCAAACAGUCAACAUGGAAGUAGACCGGCUCUGCUGAUUUGAAAUUUAGAUUUUUUUUUAAUUAUGUACUGGGGACAG | 0.454 |
| CCACUGCAAUCACUGUGCAUAUGUCUUUUCUUAGCAAAAGGAUUUUAAAACUUGAGCCCUGGACCUUUUGUCCUAUGUGUGUGGAUUCCAGGGCAACUCUAGCAUCAGAG | 6.1 |
| CAGGCAUCAGGCCCAGUGACAGUGCACCAAAGACACAGAGCCUGGAAGGGCUGUCGGGACAUACUUUCUACAUAACGCUACAACCCUGACCAAGCAAAGACAUGCUUGUU | 0.74 |
| UUCUCUCUGGUGACUUUUUGCUUUUGUGAUAUGGCAGCGGUGUGACAGUCCCAGGAGAGAAGUCAUUAAGGGGGAACAUUGCAAGCUAUCUUUUCGUGUUCUCAGUGUAU | 0.99 |
| GCACUCCAUAGUCUCAAACUGUCCCCCUUAUGACCAACAGCACAUUUGUGAAGAGGUUCGCAGGGAUAAGGGGUGCACUUUAUAGCUAUGGAAACAUGAGAUUCUCCUCU | 0.435 |
| UUCGAUGUGGGCACCUGGGCUUCCUAGGGCUGCUUCUGAGUGGUUCUUUCACGUGUUGUGUCCAUAGCUUUAGUCUUCCUAAAUAAGAUCCACCCACACCUAAGUCACAG | 0.522 |
| CUUUUUUAAUACUCCGAAAAUUUCAUCAUCUAAGAAAAUGAUUCCAUACAAAUAACUCAGCACACAAGUGACCCAGGACAUAUGCCUGCCAAAGGGAUGUGUUAGAAGGC | 1.26 |
| ACAAAGCCCACCUGCUCAUUCUCGUAGCUUUAAAGAAAAAGAAAAAGGAAAAAUAAGGAAAACUGCAAAUCUAGAAAACUUUUUAGAGAAACCUAUUUAAAACUGUCAGG | 0.625 |
| CUAGGGCAGAGCUCUGGGGGAUUGUUAUUUUACAUUACCUGGCCUAGAGUAGCAUAUUAGACAACAGUCAUCAUUGCAAGUAGGAGGACCGUAAAUGGCAUUUUACAUGA | 0.533 |

Set 3 — method: RNA Bind-n-Seq; molecule type: RNA; matrix: in vitro; concentration: not given; relative to: input RNA pool; reading: higher = stronger binding
Target: RING finger protein unkempt homolog, zinc fingers 1-6, GST-SBP tag (UNK, Homo sapiens, UniProt Q9C0B0, residues 30-357)
Sequence of UniProt Q9C0B0 (30-357, looked up): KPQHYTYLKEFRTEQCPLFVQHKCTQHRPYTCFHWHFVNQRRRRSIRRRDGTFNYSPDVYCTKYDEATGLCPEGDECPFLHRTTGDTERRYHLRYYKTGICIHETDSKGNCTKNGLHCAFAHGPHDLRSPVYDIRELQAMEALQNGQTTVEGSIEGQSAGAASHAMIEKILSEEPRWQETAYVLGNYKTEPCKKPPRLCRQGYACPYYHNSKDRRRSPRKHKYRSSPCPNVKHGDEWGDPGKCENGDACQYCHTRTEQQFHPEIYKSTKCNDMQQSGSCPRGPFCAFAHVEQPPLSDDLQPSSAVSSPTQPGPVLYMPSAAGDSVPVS
Setting: RNA with constant flanks, human and mouse sites, ends assumed
All sequences stand within: GGGAGUUCUACAGUCCGACGAUC … CAACAGAGGAUUGAGCAUCA
| Oligonucleotide | bound/input enrichment |
| --- | --- |
| GAUGGUGCUGUCUUCUUUAACAAAGAAAGAACGAGGAAUAUUGUGAAAUUUGACUUGAGGACUAGAAUUAAGAGUGGCGAGGCCAUAAUUAACUAUGCCAACUACCAUGAUACCUCACCA | 0.125 ratio |
| ACUGGAAAAACCCUGGUUGCUAGAGCACUUGCCAAUGAGUGCAGCCGAGGGGAUAAGAGAGUGGCGUUCUUCAUGAGGAAAGGUGCUGACUGCCUGAGUAAAUGGGUAGGAGAAUCUGAG | 0.103 ratio |
| UUUCUAUCUUUGAAAAUUUUCAUUUAUGAGUUCCAUGAUAUGUGGUCUAAGAAAGACCAAACAGAUUUCUAUUUUUUUUUUCUUAUAAGUUCGUUGUGUCUAGAGAUUGUUAAUAUUGUA | 3.52 ratio |
| UUUGUAAAAUUGUCCUAAUCUUUCCUAGCUUUUUAAUAGUUAAUAUUAGAAACUCUUUAAUAGUUUUCCUUUCAGUUUGUGAGCUCUUCUCUGUCGCCCUGAAGGGUCACUGUAUUCUGU | 65.9 ratio |
| GAGUUAGACCCCAAGUUGGCUCCCUGGAUCCAGAGACUGAAUAGUUUUGGCUUGGAUGCCAUAGGACCCUUUUUCACUCGGUACGGAGCAUCUCUCAAGGAGCUUGAUUUCCACGUCGUG | 0.286 ratio |
| AGGACCUCUUCCAGCCCUCUGGGAACCUCCCUGAGGUCCCAGGAGGAAAUCUGCACGGGGUGGGGGAGGGCCAGCCUCUUCCUGUUUUGUACAUAGAUUUAUUUUUCAGUUCCAAGAAAG | 0.809 ratio |
| GAAUUCCACUCUGUGGUCCACACCCUCUUGGAGUGGCUGGCAGAAGCAGAGCAAACCCUGCGUUUCCAUGGUGCUCUCCCAGAUGAUGAGGAUGCUCUCCGGACUCUCAUUGAGCAACAU | 0.137 ratio |
| CCUGCUCAGAUCACCAUGAAAGUAAUCCAAGGCUUGUACAGUGGGGUCACCACAGUGGAACUAGAUACUUUGGCUGCUGAAACAGCUGCAACCUUGACUACUAAGCACCCUGACUAUGCU | 0.202 ratio |
| GUGGCUUCAUUUUCUUUGAAUUGAAAUGAAAUACAGAUUUUUUUUUUGUAUGACUUUUGCUAGCUAUAACUACUUCAACUAAUAAGAAAGAACAGCUUUAAGCCAAAACCAAAGGUCAUU | 0.483 ratio |
| AAAAUACUACAAGCAGGUUUUAAGAGAAUGGGUGUUGACAAAAUAAUUCCUGUGGACAAAUUAGUAAAAGGAAAGUUUCAGGACAAUUUUGAAUUCGUUCAGUGGUUCAAGAAGUUUUUC | 0.532 ratio |
| GAGAACUUAGAGGAUGCUUCUCAAUGCAAGAAGUUAAGAAGCUCUUUCGAAUCAAGUUGUCCCCAACAGUGGAUAAAAUAUUUUGAUAAAAGAAGAGACUACUUAAAAUUCAAAGAAAAA | 0.217 ratio |

Set 4 — method: DHFR PCA, deep sequencing; matrix: yeast; added: (+)-ABA 4.8 µM; relative to: wild-type fitted maximum; reading: higher = stronger binding
Target: ABI1, truncated, D143A, DHFR fusion (Arabidopsis thaliana)
Setting: methotrexate growth selection, single substitutions
Parent: PYL1, truncated, DHFR fusion (Arabidopsis thaliana); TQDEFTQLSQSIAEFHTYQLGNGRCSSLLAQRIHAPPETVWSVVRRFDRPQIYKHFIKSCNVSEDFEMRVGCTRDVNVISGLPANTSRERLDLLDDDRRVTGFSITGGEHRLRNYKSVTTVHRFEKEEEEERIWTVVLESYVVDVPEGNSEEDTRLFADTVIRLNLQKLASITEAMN
| Change | relative binding score [%] |
| --- | --- |
| E174A | 23.9 |
| T101D | 5.01 |
| S117G | 11.2 |
| G21W | 42.7 |
| L156S | 65.8 |
| H110E | 10 |
| T173M | 25.9 |
| A84N | 7.93 |
| V70W | 6.94 |
| E151V | 83.9 |
| K58W | 5.85 |
| I33S | -2.18 |
| E67I | 68.5 |
| D3I | 60.5 |
| T6Q | 78.1 |
| K168C | 65.2 |
| L91A | 7.41 |
| N149Y | 5.41 |
| R163F | 5.06 |
| V121K | -13.3 |

Set 5 — target: CCNB3, cyclin fold, Cln2 fusion (human); method: yeast growth competition, sequencing; matrix: yeast; setting: weak parent motif; relative to: not given; reading: higher = stronger binding
Parent: CDKN1B docking peptide (human); PSACRNLFGPVDH
| Change | normalised enrichment score |
| --- | --- |
| PSACRNLIGPVDH [F8I] | 0.287 |
| PSACRNLFGPVDF [H13F] | 0.788 |
| PSACHNLFGPVDH [R5H] | 0.106 |
| PSACRFLFGPVDH [N6F] | 0.157 |
| PSACRNLFSPVDH [G9S] | 0.226 |
| PSAIRNLFGPVDH [C4I] | 0.437 |
| PSACRNLFGCVDH [P10C] | 0.371 |
| PSACRNLQGPVDH [F8Q] | 0.259 |
| PSGCRNLFGPVDH [A3G] | 0.194 |
| PSACRNLFGEVDH [P10E] | 0.392 |
| PSACRNLCGPVDH [F8C] | -0.0431 |
| PSACRNLFGGVDH [P10G] | 0.292 |
| PSACRNLMGPVDH [F8M] | 0.236 |
| PSACANLFGPVDH [R5A] | -0.233 |
| PSACRNLFGPVEH [D12E] | 0.193 |
| PSACRSLFGPVDH [N6S] | 0.216 |
| PSDCRNLFGPVDH [A3D] | 0.189 |
| VSACRNLFGPVDH [P1V] | 0.224 |
| PSAQRNLFGPVDH [C4Q] | -0.019 |
| PSICRNLFGPVDH [A3I] | 0.84 |
| PGACRNLFGPVDH [S2G] | 0.34 |
| PSACRNLFGDVDH [P10D] | 0.435 |
| PSKCRNLFGPVDH [A3K] | -0.148 |
| PSACRNLFGPHDH [V11H] | 0.701 |
| PSACFNLFGPVDH [R5F] | 0.43 |

For quick reference, copied from above (set 5):
| Change | normalised enrichment score |
| --- | --- |
| PSACRNLFGGVDH [P10G] | 0.292 |
| PSACRNLMGPVDH [F8M] | 0.236 |
| PSACANLFGPVDH [R5A] | -0.233 |
| PSACRNLFGPVEH [D12E] | 0.193 |
| PSACRSLFGPVDH [N6S] | 0.216 |
| PSDCRNLFGPVDH [A3D] | 0.189 |
| VSACRNLFGPVDH [P1V] | 0.224 |
| PSAQRNLFGPVDH [C4Q] | -0.019 |
